Results from different studies.
Lines come from different studies, so protocols differ. ± gives the spread as reported.

Compound = Cc1csc(NC(=O)CN2CCC(O)CC2)n1; setting = 0.2 M, 1 h; DPPH radical scavenging = 18.1%
Compound = Cc1c2c(cc3oc(=O)cc(-c4ccc(O)cc4)c13)C(=O)c1cccc(O)c1C2=O; setting = 100 µg/mL; DPPH radical scavenging = 49.3%
Compound = N#C/C(=C\c1cn(-c2ccccc2)nc1-c1ccc(Cl)cc1Cl)c1nc2ccccc2[nH]1; setting = 100 µg/mL, 45 min; DPPH radical scavenging = 55.1 ± 1.65%
Compound = O=C1NC2=C(C(=O)N(c3ccc(Cl)cc3)C2)C(c2ccc(O)cc2)N1 (stereo not drawn); setting = 100 µg/mL; DPPH radical scavenging = 80%
Compound = Cc1cc(O)cc2c1C(=O)c1c(cc3oc(=O)cc(-c4ccc(O)cc4)c3c1O)C2=O; setting = 100 µg/mL; DPPH radical scavenging = 50.7%
Compound = N#C/C(=C\c1cn(-c2ccccc2)nc1-c1ccccc1)c1nc2ccccc2[nH]1; setting = 100 µg/mL, 45 min; DPPH radical scavenging = 50.3 ± 1.48%
Compound = O=C(CCN1CCC(O)CC1)Nc1nc(-c2ccccc2)cs1; setting = 0.1 mM, 1 h; DPPH radical scavenging = 25.1%
Compound = CCCCSc1nnc(-c2ccc(N)cc2)o1; setting = 80 µg/mL; DPPH radical scavenging = 89.9%
Compound = O=C(CN1CCC(O)CC1)Nc1nccs1; setting = 0.2 M, 1 h; DPPH radical scavenging = 23.5%
Compound = N#C/C(=C\c1cn(-c2ccccc2)nc1-c1ccc(Br)cc1)c1nc2ccccc2[nH]1; setting = 100 µg/mL, 45 min; DPPH radical scavenging = 64.3 ± 1.95%
Compound = CCOC(=O)Cc1csc(NC(=O)CCN2CCC(O)CC2)n1; setting = 0.1 mM, 20 min; DPPH radical scavenging = 13.3%
Compound = N#C/C(=C\c1cn(-c2ccccc2)nc1-c1ccc([N+](=O)[O-])cc1)c1nc2ccccc2[nH]1; setting = 100 µg/mL, 45 min; DPPH radical scavenging = 53.2 ± 0.98%

For quick reference, copied from above:
Compound = O=C(CCN1CCC(O)CC1)Nc1nc(-c2ccccc2)cs1; setting = 0.1 mM, 1 h; DPPH radical scavenging = 25.1%
Compound = CCCCSc1nnc(-c2ccc(N)cc2)o1; setting = 80 µg/mL; DPPH radical scavenging = 89.9%
